Assay results of several laboratories.
Each numbered part is a random draw from the data of one study; scales do not carry over between parts. Changes are numbered by the printed parent chain.

Set 1
Target: CCNB2, cyclin fold, Cln2 fusion (human)
Method: yeast growth competition, sequencing
Matrix: yeast
Notes: strong parent motif
Baseline: not given
Direction: higher = stronger binding
Starting sequence: viral docking peptide; YKVKRRLVFGADD; partner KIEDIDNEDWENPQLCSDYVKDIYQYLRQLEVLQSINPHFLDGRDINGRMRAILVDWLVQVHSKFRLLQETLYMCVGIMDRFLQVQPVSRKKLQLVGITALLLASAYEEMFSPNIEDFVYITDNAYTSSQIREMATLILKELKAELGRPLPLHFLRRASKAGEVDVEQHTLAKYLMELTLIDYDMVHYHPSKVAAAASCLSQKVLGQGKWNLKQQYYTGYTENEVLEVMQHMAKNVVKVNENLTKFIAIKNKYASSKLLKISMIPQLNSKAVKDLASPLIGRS
Substitution	normalised enrichment score
D12H	0.891
V3E	0.523
K2C	2
R5D	0.133
L7A	0.18
K4M	-0.384
G10P	1.68
D12N	1.45
R6Q	0.906
R6D	0.538
G10A	1.91
F9R	0.379
F9V	0.475
K2S	2.12
K4E	0.0822
K4Y	0.908
K4D	0.164
G10M	1.25
K2E	2.61
A11L	1.59
K2V	1.64
L7C	-0.0457
R5Q	1.09
L7Y	0.509

Set 2
Target: UDP-N-acetylglucosamine--peptide N-acetylglucosaminyltransferase 110 kDa subunit (OGT, Homo sapiens, UniProt O15294)
Observed: phage display binding
Method: phage display panning NGS
Molecule type: peptide
Notes: panning round 3
Baseline: OGT-panned over input library
Construct (O15294 1-1046): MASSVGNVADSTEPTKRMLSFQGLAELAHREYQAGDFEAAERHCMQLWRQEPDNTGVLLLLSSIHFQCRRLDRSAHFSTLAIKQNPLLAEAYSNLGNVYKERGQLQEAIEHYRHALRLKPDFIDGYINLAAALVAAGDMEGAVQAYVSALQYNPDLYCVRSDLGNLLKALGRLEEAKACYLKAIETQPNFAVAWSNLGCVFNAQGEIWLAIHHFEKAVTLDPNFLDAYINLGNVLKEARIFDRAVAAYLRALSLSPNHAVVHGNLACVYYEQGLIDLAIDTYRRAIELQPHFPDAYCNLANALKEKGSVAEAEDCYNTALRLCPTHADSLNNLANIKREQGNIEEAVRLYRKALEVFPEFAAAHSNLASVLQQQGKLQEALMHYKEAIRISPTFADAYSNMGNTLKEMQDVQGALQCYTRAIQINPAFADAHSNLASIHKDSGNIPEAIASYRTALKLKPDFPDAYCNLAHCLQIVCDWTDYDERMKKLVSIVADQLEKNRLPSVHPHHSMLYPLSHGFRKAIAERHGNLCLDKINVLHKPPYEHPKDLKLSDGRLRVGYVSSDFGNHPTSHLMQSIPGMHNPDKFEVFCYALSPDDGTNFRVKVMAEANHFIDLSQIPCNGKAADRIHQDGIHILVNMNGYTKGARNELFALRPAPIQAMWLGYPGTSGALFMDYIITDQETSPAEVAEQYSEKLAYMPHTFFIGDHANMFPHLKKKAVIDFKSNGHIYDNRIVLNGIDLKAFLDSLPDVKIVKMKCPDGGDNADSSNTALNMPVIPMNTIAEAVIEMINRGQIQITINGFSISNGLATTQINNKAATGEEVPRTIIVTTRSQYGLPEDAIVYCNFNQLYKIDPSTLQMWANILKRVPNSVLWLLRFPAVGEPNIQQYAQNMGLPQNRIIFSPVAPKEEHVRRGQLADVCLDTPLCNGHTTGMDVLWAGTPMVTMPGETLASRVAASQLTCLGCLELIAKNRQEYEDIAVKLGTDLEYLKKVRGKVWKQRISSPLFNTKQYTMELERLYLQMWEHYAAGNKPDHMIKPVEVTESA
Sequence	fold enrichment
NIMPAYQIMYPANFR	2.33
IYLPIYQIQAQWPFK	3.62
MWFPPVYSIQYDLI	3.38
EALFRYTPFYQIDI	3.16
ASQYDFMPAYRIDVG	2.31
ESIYKPRYQISIAYA	4.18
SYMPVYQIDYTPAV	4.07

Set 3
Target: RNA binding protein fox-1 homolog 2, RRM domain, GST-SBP tag (RBFOX2, Homo sapiens, UniProt O43251-10, residues 100-194)
Method: RNA Bind-n-Seq
Molecule type: RNA
Matrix: in vitro
Concentration: 365 nM
Notes: natural RNA segment, single round, ends assumed
Baseline: no-protein control
Direction: higher = stronger binding
Residues (chain): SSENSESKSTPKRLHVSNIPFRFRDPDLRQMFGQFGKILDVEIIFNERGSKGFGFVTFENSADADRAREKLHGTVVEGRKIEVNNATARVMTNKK
Strand	RBNS enrichment (R)
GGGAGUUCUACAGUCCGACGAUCUCUAGAAGAUUGAGAAGUGCAUAUGACAGGCUGAGAGCACCUCCCCAAACACACAAGCUCUCAGCCACAGGCAGCUUCUCCACAGCCCCAGCUUCGCACAGGCUCCUGGAUGGAAUUCUCGGGUGCCAA	1.03
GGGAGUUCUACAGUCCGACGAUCUUAUCUUAGUGUGCACUUGAUUGUGAGUUUUAAGAUUAUGGUUUUAGGAUUUCUUUUAUUUUUUGUCUUUUAAAUUGUUCUUUAAUGGAUUUUAAAUGUCUGUAUCUAAUUGGAAUUCUCGGGUGCCAA	0.847
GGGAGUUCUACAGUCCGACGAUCUUCUCAAGCCUAUUACUCUAGAGCUGUAAAAGCUCUUGCACAGCAUUGUUGUGUCAGUGUAGAAUAGUGGCAUAAAUAAAUGAAUUAAGCUACAUUUCCAUGCAGGCAUUUGGAAUUCUCGGGUGCCAA	0.282
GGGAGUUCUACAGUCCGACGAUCAGAAAAAUGCCUAAUAUACUAAAGUAAACCAAACGUUGUCACUUUUCUCUUGUUCUUGAAACAUUGCAACCAAAAAGGUCAGCACAAAGGCCUUCACCUACGUGAAGACCUGGAAUUCUCGGGUGCCAA	0.754
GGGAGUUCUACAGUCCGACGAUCCUGUCCAGCCUCUGAGUACCAUGUUAUUUCAGCUCCAUGUUGCCCUGCAACAGGAAGCAGGAAGGUUGCUCGCCCUGUUUCCAGAGAUUGCAAUAAAGCAGUGUGAGGGGUGGAAUUCUCGGGUGCCAA	0.243
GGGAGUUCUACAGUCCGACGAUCCUGGGAUUUUAAGCUAGGAUAUGAUUAUAUUUCCUAUAAAACUAAAACUUUUAUUUCAUAAAUUUUAAAAUAAUUAUUUUUGAUUAUGAAUACUAGUCCAAAUUUAAUAUUGGAAUUCUCGGGUGCCAA	1.27
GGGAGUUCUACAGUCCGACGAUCCCAUAUUAGCAGUGAAACAUUUUAAACUGCAGAAAUUGUGGUUUUGGUUCAGAAACAAGUUGUAUAUUUUUCACCCCUGAUUAUGGGAAAAAAAUCAGUUCUGUCUUUGUUGGAAUUCUCGGGUGCCAA	0.419
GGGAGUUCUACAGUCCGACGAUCUUACAUUGUGUAUUUCUUCCUUUUAGGAAAAACCUACCUAGUACAAGCUACCACGUGCACAGACAGCCCAAUGAGUGGGCCAUUUCUCCACAACCCUGGUGUAAUACAGAUGGAAUUCUCGGGUGCCAA	0.368

Set 4
Target: inorganic phosphate, free oxyanion
Method: microfluidic competitive inhibition
Matrix: in vitro, cell-free expressed
Concentration: not given
Notes: derived from inhibition constants, unchanged parent 615000 nM
Direction: lower = stronger binding
Starting sequence: PafA, mature enzyme, eGFP fusion (Elizabethkingia meningoseptica, UniProt Q9KJX5); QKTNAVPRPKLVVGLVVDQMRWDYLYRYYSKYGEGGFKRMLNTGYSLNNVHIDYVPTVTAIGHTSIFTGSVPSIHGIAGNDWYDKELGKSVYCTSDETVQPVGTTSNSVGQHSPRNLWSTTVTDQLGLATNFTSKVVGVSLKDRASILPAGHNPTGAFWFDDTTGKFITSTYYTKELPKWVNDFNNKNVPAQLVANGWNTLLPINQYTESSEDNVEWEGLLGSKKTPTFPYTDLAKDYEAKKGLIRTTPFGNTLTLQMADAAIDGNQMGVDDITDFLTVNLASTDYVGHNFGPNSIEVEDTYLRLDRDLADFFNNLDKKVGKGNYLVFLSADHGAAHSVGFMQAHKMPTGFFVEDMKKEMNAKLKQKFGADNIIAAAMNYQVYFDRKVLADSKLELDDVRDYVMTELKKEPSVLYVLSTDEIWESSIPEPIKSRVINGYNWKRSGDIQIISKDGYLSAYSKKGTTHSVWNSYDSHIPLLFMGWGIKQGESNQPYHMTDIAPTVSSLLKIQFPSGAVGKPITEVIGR
Substitution	phosphate dissociation constant
D124V	370 µM
P178V	600 µM
D332G	23.1 µM
N214G	558 µM
Y286V	515 µM
A376V	581 µM

Other studies, line by line
Substance	tested on	assay	system	conditions	scale	quantity	result
FLOT1 (Homo sapiens, UniProt O75955)	ARHGEF7 (Homo sapiens, UniProt Q14155)	cross-linking MS	cell fractions	with: DSSO	–	cross-linked residues	K198 to K535
PhoQ, residues 284 288 289 292 302 303 SSCLAV	PhoP, residues 12 14 15 18 19 LHHVQ (Escherichia coli, UniProt P23836)	Sort-seq, measured: YFP reporter	E. coli	PhoQ-PhoP variant library, with: 10 µM Mg2+	baseline: high Mg2+ state, higher = stronger signaling	fold induction	2.42
SUCLG1 (Homo sapiens, UniProt P53597)	SUCLG2 (Homo sapiens, UniProt Q96I99)	cross-linking MS	–	hits only	–	interaction screen	cross-linked
RPN1 (Homo sapiens, UniProt P04843)	STT3A (Homo sapiens, UniProt P46977)	cross-linking MS	cell fractions	with: DSSO	–	cross-linked residues	K599 to K440
SNRPD1 (Homo sapiens, UniProt P62314)	SNRPD2 (Homo sapiens, UniProt P62316)	cross-linking MS	–	hits only	–	interaction screen	cross-linked

Some of these lines once more (set 1):
Substitution	normalised enrichment score
R6Q	0.906
R6D	0.538
G10A	1.91
